Published values of several laboratories.
“And” joins repeats or separate records; there may be more than shown. ± marks the error that the study gave.
MBLAC2: MBLAC2 (Homo sapiens, UniProt Q68D91)
Chain of UniProt Q68D91 (whole entry, looked up): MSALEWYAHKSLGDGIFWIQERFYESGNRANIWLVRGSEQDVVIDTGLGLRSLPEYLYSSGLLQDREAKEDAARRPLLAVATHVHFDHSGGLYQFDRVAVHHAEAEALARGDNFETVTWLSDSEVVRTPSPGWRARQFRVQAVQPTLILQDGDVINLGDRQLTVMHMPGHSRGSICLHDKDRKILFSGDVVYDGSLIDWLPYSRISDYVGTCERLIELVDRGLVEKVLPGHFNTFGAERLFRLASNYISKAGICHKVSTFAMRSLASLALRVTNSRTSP
PPIA: Peptidyl-prolyl cis-trans isomerase A (PPIA, Homo sapiens, UniProt P62937)
Chain of UniProt P62937 (whole entry, looked up): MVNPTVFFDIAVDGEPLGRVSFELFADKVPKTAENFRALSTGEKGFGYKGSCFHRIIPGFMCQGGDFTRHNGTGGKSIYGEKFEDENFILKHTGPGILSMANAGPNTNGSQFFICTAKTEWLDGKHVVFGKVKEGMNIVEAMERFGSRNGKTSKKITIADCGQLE
CDK2: Cyclin-dependent kinase 2 (CDK2, Homo sapiens, UniProt P24941)
WD repeat-containing protein 91 residues 392–747: WD repeat-containing protein 91, residues 392–747 (Homo sapiens, UniProt A4D1P6)
Chain of UniProt A4D1P6 (whole entry, looked up): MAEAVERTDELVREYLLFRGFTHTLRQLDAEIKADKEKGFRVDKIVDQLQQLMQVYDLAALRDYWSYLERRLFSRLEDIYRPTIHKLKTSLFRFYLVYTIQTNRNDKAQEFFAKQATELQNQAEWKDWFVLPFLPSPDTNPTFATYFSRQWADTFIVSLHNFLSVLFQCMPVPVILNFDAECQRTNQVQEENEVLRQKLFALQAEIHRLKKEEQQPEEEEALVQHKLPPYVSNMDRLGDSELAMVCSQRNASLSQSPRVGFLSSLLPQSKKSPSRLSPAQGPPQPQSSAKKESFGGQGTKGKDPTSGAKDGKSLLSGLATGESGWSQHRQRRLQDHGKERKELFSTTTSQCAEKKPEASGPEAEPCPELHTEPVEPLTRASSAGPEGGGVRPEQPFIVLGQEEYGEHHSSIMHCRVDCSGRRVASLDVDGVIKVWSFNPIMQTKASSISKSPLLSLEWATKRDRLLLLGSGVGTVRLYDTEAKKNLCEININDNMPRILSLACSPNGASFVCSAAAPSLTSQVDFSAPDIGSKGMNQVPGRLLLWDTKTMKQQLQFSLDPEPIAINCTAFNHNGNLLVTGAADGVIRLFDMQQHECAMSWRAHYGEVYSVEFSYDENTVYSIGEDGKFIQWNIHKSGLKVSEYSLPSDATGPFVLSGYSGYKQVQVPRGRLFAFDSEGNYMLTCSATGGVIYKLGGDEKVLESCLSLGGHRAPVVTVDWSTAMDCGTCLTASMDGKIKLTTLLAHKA
CDK2 with cyclin A: Cyclin-dependent kinase 2, with cyclin A (CDK2, Homo sapiens, UniProt P24941)
Uncharacterized protein: Uncharacterized protein (Pelagibacter ubique, UniProt Q4FMA9)
Chain of UniProt Q16774 (whole entry, unmodified, looked up): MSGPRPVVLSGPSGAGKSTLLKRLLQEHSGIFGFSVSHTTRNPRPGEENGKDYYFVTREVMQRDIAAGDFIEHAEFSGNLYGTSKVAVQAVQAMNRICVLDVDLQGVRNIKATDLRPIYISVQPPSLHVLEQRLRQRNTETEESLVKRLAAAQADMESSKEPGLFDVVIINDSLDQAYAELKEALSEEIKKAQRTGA
Chain of UniProt Q88FY2 (whole entry, looked up): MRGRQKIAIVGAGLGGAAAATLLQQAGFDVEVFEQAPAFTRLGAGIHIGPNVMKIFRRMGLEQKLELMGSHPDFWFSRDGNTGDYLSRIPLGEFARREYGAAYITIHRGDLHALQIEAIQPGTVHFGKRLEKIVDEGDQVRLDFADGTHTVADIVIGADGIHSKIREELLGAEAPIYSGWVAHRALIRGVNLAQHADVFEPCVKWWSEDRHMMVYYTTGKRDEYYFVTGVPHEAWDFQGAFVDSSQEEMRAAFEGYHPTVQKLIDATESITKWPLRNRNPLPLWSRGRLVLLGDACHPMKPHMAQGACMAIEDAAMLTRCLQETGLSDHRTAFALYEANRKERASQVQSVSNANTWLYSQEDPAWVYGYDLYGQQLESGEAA
Chain of UniProt P19174 (whole entry, looked up): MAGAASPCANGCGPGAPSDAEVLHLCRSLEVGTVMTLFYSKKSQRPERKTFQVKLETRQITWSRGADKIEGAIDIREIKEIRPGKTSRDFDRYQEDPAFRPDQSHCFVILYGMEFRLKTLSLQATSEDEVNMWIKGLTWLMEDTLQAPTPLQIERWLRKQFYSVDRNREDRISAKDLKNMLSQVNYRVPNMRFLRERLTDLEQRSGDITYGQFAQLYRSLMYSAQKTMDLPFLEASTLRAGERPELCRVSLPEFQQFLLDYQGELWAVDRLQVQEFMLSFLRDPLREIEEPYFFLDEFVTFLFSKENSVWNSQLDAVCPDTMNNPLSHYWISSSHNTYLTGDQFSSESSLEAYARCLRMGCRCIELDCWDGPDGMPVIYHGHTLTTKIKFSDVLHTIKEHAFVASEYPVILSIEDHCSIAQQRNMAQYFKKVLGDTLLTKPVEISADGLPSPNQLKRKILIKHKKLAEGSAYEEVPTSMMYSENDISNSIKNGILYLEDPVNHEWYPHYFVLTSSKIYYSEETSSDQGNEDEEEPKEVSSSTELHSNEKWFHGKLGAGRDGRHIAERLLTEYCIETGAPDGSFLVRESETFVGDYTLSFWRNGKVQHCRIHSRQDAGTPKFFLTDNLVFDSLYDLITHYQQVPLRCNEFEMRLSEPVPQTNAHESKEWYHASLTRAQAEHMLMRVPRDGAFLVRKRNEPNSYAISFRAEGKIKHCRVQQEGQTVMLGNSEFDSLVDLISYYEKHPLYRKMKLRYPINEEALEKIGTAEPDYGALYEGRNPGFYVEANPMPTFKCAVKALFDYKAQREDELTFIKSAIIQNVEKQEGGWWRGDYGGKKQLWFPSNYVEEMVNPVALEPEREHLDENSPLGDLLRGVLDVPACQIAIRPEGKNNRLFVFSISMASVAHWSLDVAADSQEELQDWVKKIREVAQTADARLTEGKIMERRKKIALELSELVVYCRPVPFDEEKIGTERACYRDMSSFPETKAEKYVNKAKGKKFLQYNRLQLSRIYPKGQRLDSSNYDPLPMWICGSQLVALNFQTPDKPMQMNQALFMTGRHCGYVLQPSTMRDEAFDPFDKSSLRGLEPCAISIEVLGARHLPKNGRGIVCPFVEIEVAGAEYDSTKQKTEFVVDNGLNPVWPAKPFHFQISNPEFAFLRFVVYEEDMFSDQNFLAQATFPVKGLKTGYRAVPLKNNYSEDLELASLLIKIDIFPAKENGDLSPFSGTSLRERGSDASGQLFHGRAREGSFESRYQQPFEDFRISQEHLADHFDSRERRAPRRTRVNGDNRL
Chain of UniProt Q13547 (whole entry, looked up): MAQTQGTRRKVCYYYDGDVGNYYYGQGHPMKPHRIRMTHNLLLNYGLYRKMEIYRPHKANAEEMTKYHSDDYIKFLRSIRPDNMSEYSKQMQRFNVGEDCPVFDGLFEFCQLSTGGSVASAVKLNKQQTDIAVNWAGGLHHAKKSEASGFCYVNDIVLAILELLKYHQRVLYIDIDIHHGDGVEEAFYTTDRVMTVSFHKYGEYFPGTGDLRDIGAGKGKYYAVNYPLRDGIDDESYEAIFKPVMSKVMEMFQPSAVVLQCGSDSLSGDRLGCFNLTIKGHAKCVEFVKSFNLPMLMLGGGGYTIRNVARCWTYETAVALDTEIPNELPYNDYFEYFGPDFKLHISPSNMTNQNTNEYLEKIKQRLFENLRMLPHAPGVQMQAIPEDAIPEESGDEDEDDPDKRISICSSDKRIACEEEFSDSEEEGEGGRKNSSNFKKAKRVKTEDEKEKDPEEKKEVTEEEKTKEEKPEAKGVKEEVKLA
Chain of UniProt Q9RUB5 (whole entry, looked up): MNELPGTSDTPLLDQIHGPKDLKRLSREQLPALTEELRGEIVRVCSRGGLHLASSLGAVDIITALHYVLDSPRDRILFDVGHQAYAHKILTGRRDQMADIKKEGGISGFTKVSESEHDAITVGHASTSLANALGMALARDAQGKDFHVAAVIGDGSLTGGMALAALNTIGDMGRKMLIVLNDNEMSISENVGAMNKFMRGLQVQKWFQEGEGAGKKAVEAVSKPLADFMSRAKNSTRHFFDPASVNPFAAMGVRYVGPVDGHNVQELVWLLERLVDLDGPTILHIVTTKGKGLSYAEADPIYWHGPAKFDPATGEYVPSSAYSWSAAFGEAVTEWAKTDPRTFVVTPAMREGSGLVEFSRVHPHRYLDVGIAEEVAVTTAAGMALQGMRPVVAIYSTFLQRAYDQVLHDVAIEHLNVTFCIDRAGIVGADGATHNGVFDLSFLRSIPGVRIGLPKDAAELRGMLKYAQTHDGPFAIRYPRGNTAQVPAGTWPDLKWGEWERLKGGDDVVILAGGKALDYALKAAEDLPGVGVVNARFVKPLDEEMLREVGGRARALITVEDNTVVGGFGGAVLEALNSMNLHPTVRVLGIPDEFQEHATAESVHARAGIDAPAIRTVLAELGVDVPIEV
Chain of UniProt O14734 (whole entry, looked up): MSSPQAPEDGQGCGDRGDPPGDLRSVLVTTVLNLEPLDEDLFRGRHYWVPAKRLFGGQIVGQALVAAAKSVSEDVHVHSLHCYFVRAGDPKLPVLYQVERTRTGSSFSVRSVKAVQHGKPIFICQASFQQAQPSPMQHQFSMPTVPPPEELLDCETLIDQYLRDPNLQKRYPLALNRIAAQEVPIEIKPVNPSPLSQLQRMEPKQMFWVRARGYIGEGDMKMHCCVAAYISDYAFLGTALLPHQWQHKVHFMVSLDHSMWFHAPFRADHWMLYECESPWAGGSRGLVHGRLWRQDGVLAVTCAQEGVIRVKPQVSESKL
Chain of UniProt Q13557 (whole entry, looked up): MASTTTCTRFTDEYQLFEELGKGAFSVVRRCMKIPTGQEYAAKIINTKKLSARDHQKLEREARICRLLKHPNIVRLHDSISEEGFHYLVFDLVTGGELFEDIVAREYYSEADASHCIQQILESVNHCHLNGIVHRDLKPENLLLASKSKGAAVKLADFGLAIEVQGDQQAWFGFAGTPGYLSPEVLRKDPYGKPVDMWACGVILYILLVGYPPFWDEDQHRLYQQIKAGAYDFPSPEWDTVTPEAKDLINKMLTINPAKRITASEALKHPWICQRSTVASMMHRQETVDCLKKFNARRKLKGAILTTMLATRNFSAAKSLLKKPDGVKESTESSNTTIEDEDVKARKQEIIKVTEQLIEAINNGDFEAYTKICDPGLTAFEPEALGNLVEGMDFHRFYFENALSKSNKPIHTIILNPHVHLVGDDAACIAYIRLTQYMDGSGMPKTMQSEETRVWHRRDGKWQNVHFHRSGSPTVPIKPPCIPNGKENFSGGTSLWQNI

For `CCCCOc1ccc(CC(=O)NO)cc1`, the Kd was greater than 30.2 µM (HDAC1 (Homo sapiens, UniProt Q13547); inhibitor, competition pulldown; SW620 and MV4-11 lysate; 1 h).
For `OC[C@H]1OC(O)[C@H](O)[C@@H](O)[C@@H]1O` (stereo partly shown), Kd read “not detected” (Interferon regulatory factor 6 (IRF6, Homo sapiens, UniProt O14896, N106A); microscale thermophoresis).
`FC(F)(F)c1ccc(-c2nnc(-c3cc4c(s3)CCCC4)o2)cn1` — result for Kd: “no binding” (dxs (Deinococcus radiodurans, UniProt Q9RUB5); binding, SPR).
For `CCCN1CCN(c2ccc(-c3cncc(Cl)c3N3CCC4(CCNC4=O)CC3)cc2)CC1`, the Kd was greater than 11.4 µM (CAMK2D (Homo sapiens, UniProt Q13557); SILAC displacement; LS174T-L5 cell lysate).
`C#Cc1cccc(Nc2ncnc3cc(OC)c(OCCCCCCC(=O)NO)cc23)c1` gave a Kd of 1.08 µM (MBLAC2; inhibitor, competition pulldown; SW620 and MV4-11 lysate; 1 h).
`CC(C)(C)c1ccc(S(=O)(=O)/C=C/C#N)cc1` gave a Kd of 16 µM (PPIA; HDX MALDI-MS).
With `Nc1nc2c(ncn2[C@@H]2O[C@H](COP(=O)(O)O)[C@@H](O)[C@H]2O)c(=O)[nH]1` the Kd was 104 ± 2 µM (GUK1 (Homo sapiens, UniProt Q16774, T83A); binding, ITC; 25 °C).
With `Cc1cc(C)c(S(=O)(=O)N(C)CC(=O)N2CCC(C(N)=O)CC2)c(C)c1` the Kd was greater than 100 µM (CDK2; binding).
`Nc1ncnc2c1ncn2[C@@H]1O[C@H](COP(=O)(O)OP(=O)(O)O)[C@@H](O)[C@H]1O` gave a Kd of 33 ± 18 µM (CKMT1A (Homo sapiens, UniProt P12532, E265Q); microscale thermophoresis; pH 7.0, E227Q mutant, no substrate).
The Kd of `O=C(CCCCCCNC(=O)c1cnc(N(c2ccccc2)c2ccccc2)nc1)NO` is reported as 1.52 µM (MBLAC2; inhibitor, competition pulldown; SW620 and MV4-11 lysate; 1 h).
`O=C(O)c1ccc(S)nc1` has a Kd of 2700 ± 100 µM (6-hydroxynicotinate 3-monooxygenase (nicC, Pseudomonas putida, UniProt Q88FY2); binding, flavin absorbance titration).
`Nc1ncnc2c1ncn2[C@@H]1O[C@@H]2COP(=O)(O)O[C@H]3[C@@H](O)[C@H](n4cnc5c(N)ncnc54)O[C@@H]3COP(=O)(O)O[C@H]3[C@@H](O)[C@H](n4cnc5c(N)ncnc54)O[C@@H]3COP(=O)(O)O[C@H]3[C@@H](O)[C@H](n4cnc5c(N)ncnc54)O[C@@H]3COP(=O)(O)O[C@H]2[C@H]1O` gave a Kd of roughly 0.062 µM (Csx1–Crn2^182–563).
`CCCCN(Cc1ccc(C(=O)NO)cc1)C(=O)Nc1ccccc1` gave a Kd of 0.0256 µM (MBLAC2; inhibitor, competition pulldown; SW620 and MV4-11 lysate; 1 h).
With `N#Cc1cccc2c1CC[C@H]2NC(=O)c1ccc(Nc2ncnc3ccccc23)cc1` the Kd was 4.5 µM and 4.2 µM (WD repeat-containing protein 91 residues 392–747; SPR).
With `CC(C)(COP(=O)(O)OP(=O)(O)OC[C@H]1O[C@@H](n2cnc3c(N)ncnc32)[C@H](O)[C@@H]1OP(=O)(O)O)[C@@H](O)C(=O)NCCC(=O)NCCS` the Kd was 5.29 µM (Acyl-coenzyme A thioesterase 8 (ACOT8, Homo sapiens, UniProt O14734); competitor, competition MS pulldown; SW-620 cell lysate; together with: photo-immobilized beads).
`Nc1ccccc1NC(=O)c1ccc(CNc2nccc(-c3cccnc3)n2)cc1` gave a Kd of greater than 30.2 µM (MBLAC2; inhibitor, competition pulldown; SW620 and MV4-11 lysate; 1 h).
With `O=C1c2ccccc2C(=O)N1CCCc1nc(-c2cccc([N+](=O)[O-])c2)no1` the Kd was greater than 100 µM (CDK2 with cyclin A).
For `CC[C@H](CO)Nc1nc(NCc2ccc(-c3ccccn3)cc2)c2ncn(C(C)C)c2n1`, the Kd was 28.2 µM (cyclin B2, human; affinity chromatography competition; SH-SY5Y cell extract).
With `O=C1C=CC(=O)N1c1cc(Cl)cc(Cl)c1` the Kd was no more than 10 µM (PPIA; HDX MALDI-MS).
`CN1CCN(C(=O)CN(c2cc(C(F)(F)F)ccc2Cl)S(=O)(=O)c2ccccc2)CC1` gave a Kd of greater than 100 µM (CDK2 with cyclin A).
The Kd of `O=C(O)CCN1C(=O)C(=Cc2ccc(F)cc2)SC1=S` is reported as greater than 40 µM (PPIA; HDX MALDI-MS).
For `CCn1c(SCC(=O)Nc2cccc(OC)c2)nnc1-c1ccncc1`, the Kd was greater than 100 µM (CDK2; binding).
For `CCCCCCCC(=O)OC[C@H](COP(=O)(O)O[C@@H]1[C@H](O)[C@H](O)[C@@H](OP(=O)(O)O)[C@H](OP(=O)(O)O)[C@H]1O)OC(=O)CCCCCCC`, the Kd was 23.1 µM (Kv7.2/Kv7.3(EEE) mutant channel; channel opening, activator, model fit of open probability; model 5, K3, efficacy fixed to WT).
`CCc1ccccc1NC(=O)CSc1nnc(-c2cccc(OC)c2)n1C` gave a Kd of greater than 100 µM (CDK2 with cyclin A).
For `CCCCc1nc2cc(/C=C/C(=O)NO)ccc2n1CCN(CC)CC`, the Kd was 0.544 µM (MBLAC2; inhibitor, competition pulldown; SW620 and MV4-11 lysate; 1 h).
`CCOC(=O)Nc1ccc(NCc2ccc(F)cc2)nc1N` gave a Kd of roughly 20 µM (PLCG2 (Homo sapiens, UniProt P16885); binding, surface plasmon resonance; 25 °C, immobilised residues 1-1195).
For `O=C(C[C@@H](C(F)F)n1ccc(F)n1)N1CCC(O)(Cn2cnc3c(cnn3-c3ccc(F)cc3)c2=O)CC1`, the Kd was 1.12 ± 0.362 µM (USP7 (Homo sapiens, UniProt Q93009, V517Y); isothermal titration calorimetry; USP7 V517Y).
The Kd of `O=S(=O)(O)C[C@H](O)CO` is reported as 5.9 µM and 3.98 µM (Uncharacterized protein; isothermal titration calorimetry; Candidatus Pelagibacter ubique; together with: CaCl2 10 mM).
For `Nc1ncnc2c1ncn2[C@@H]1O[C@H](CO[P@](=O)(O)O[P@](=O)(O)O[P@@](=O)(O)S)[C@@H](O)[C@H]1O`, the Kd was greater than 400 µM (GUK1 (Homo sapiens, UniProt Q16774, N171A); binding, ITC; 25 °C, together with: GMP).
`CC(=O)c1cccc(OCc2cn(-c3ccc(C(=O)N4CCC(C#N)CC4)cc3)nn2)c1` has a Kd of 21 µM and 18 µM (WD repeat-containing protein 91 residues 392–747; SPR).
For `O=C(/C=C/c1cccc(S(=O)(=O)Nc2ccccc2)c1)NO`, the Kd was greater than 30.2 µM (MBLAC2; inhibitor, competition pulldown; SW620 and MV4-11 lysate; 1 h).
`CN(C)CCNS(=O)(=O)c1ccc(N/C=C2\C(=O)Nc3ccccc32)cc1` gave a Kd of 3.38 µM (CDK2; average of ITC, Octet and Thermofluor; untagged protein).
`CCCC(CCC)C(=O)O` gave a Kd of greater than 3020 µM (MBLAC2; inhibitor, competition pulldown; SW620 and MV4-11 lysate; 1 h).
The Kd of `CN1CCN(C(=O)c2ccccc2N(Cc2ccccc2)S(C)(=O)=O)CC1` is reported as greater than 100 µM (CDK2 with cyclin A).
The Kd of `[N-]=[N+]=NCC1OC(OC2C(N)CC(N)C(OC3OC(CN)C(O)C(O)C3O)C2O)C(O)C(N)C1O` (stereo not shown) is reported as 0.68 ± 0.083 µM (RNA with DM2 repeats; RNA binding, fluorescence titration; 1 h, room temperature, 12 repeat copies).
The Kd of `CC[C@H](C)[C@H](NC(=O)[C@H](CC(C)C)NC(=O)[C@H](Cc1ccc(OP(=O)(O)O)cc1)NC(=O)[C@H](CCC(=O)O)NC(=O)[C@H](CC(=O)O)NC(=O)[C@H](C)NC(=O)[C@H](CC(=O)O)NC(=O)[C@@H](NC(=O)[C@@H](NC(=O)[C@H](CC(=O)O)NC(=O)[C@H](CC(=O)O)NC(=O)[C@H](CCSC)NC(=O)c1ccc2c(c1)C(=O)OC21c2ccc(N(C)C)cc2Oc2cc(N(C)C)ccc21)C(C)C)C(C)C)C(=O)N1CCC[C@H]1C(=O)N[C@@H](CCC(N)=O)C(=O)N[C@@H](CCC(N)=O)C(=O)NCC(=O)N[C@@H](Cc1ccccc1)C(=O)N[C@@H](CC(=O)O)C(=O)O` is reported as 0.794 µM (1-phosphatidylinositol 4,5-bisphosphate phosphodiesterase gamma-1, SH2 domains (PLCG1, Homo sapiens, UniProt P19174); binding).
`COc1ccc(-c2cncc(C(=O)N[C@@H]3CCc4c(C#N)cccc43)c2)c(C)c1` gave a Kd of 8.4 µM and 8.2 µM (WD repeat-containing protein 91 residues 392–747; SPR).
For `N=C(N)SCc1ccc(CSC(=N)N)s1`, the Kd was 18.2 ± 5 µM (VPS26A/VPS35/VPS29 (Homo sapiens, UniProt O75436+Q96QK1+Q9UBQ0); binding).
`O=S(=O)(O)CCO` has a Kd of 0.479 µM and 0.217 µM and 0.477 µM (Uncharacterized protein; isothermal titration calorimetry; Candidatus Pelagibacter ubique; together with: CaCl2 10 mM).
The Kd of `CC1CCN(S(=O)(=O)c2ccc(Cl)c(C(=O)Nc3ccc(C(=O)O)cc3)c2)CC1` is reported as greater than 100 µM (CDK2 with cyclin A).
`O=C(O)c1cccc(C(=O)O)n1` has a Kd of 38.5 ± 3 µM (calcium ion; isothermal titration calorimetry).
`N#Cc1cccc(OCc2cn(-c3ccc(C(=O)N4CCC(C#N)CC4)cc3)nn2)c1` gave a Kd of 8.5 µM and 7 µM (WD repeat-containing protein 91 residues 392–747; SPR).
The Kd of `CC(C)N(CCC(=O)c1ccc2ccccc2c1)Cc1ccccc1` is reported as 4 µM (PPIA; HDX MALDI-MS).

For quick reference, copied from above:
With `Cc1cc(C)c(S(=O)(=O)N(C)CC(=O)N2CCC(C(N)=O)CC2)c(C)c1` the Kd was greater than 100 µM (CDK2; binding).
`Nc1ncnc2c1ncn2[C@@H]1O[C@H](COP(=O)(O)OP(=O)(O)O)[C@@H](O)[C@H]1O` gave a Kd of 33 ± 18 µM (CKMT1A (Homo sapiens, UniProt P12532, E265Q); microscale thermophoresis; pH 7.0, E227Q mutant, no substrate).
The Kd of `O=C(CCCCCCNC(=O)c1cnc(N(c2ccccc2)c2ccccc2)nc1)NO` is reported as 1.52 µM (MBLAC2; inhibitor, competition pulldown; SW620 and MV4-11 lysate; 1 h).
`O=C(O)c1ccc(S)nc1` has a Kd of 2700 ± 100 µM (6-hydroxynicotinate 3-monooxygenase (nicC, Pseudomonas putida, UniProt Q88FY2); binding, flavin absorbance titration).
`Nc1ncnc2c1ncn2[C@@H]1O[C@@H]2COP(=O)(O)O[C@H]3[C@@H](O)[C@H](n4cnc5c(N)ncnc54)O[C@@H]3COP(=O)(O)O[C@H]3[C@@H](O)[C@H](n4cnc5c(N)ncnc54)O[C@@H]3COP(=O)(O)O[C@H]3[C@@H](O)[C@H](n4cnc5c(N)ncnc54)O[C@@H]3COP(=O)(O)O[C@H]2[C@H]1O` gave a Kd of roughly 0.062 µM (Csx1–Crn2^182–563).
`CCCCN(Cc1ccc(C(=O)NO)cc1)C(=O)Nc1ccccc1` gave a Kd of 0.0256 µM (MBLAC2; inhibitor, competition pulldown; SW620 and MV4-11 lysate; 1 h).
